# Results gathered from unrelated publications.
# Numbered parts are unrelated; each lists some results of a single study.

# Block 1 — technique: Sort-seq; refers to: YFP reporter; medium: E. coli; setting: PhoQ-PhoP variant library; together with: 10 µM Mg2+; reference: high Mg2+ state; direction: higher = stronger signaling
# Substance: PhoQ, residues 284 288 289 292 302 303 TGYLSA
target,fold induction
"PhoP, residues 12 14 15 18 19 QYCSL (Escherichia coli, UniProt P23836)",6.48
"PhoP, residues 12 14 15 18 19 STHWV (Escherichia coli, UniProt P23836)",4.15
"PhoP, residues 12 14 15 18 19 SHWTV (Escherichia coli, UniProt P23836)",16.7

# Block 2 — technique: protein-binding microarray; form: double-stranded DNA, one strand shown; medium: in vitro; concentration: 250 nM; setting: 60-bp whole probe; together with: salmon DNA 0.4 mg/ml; reference: random background probes; direction: higher = stronger binding
# Target: Interferon regulatory factor 5, full length, phosphomimetic (IRF5, Homo sapiens, UniProt Q13568-2, residues 1-514, K96S/S451D/S453D/S456D/S462D)
Strand,log fluorescence [z-score]
GCCTAGCACGACGGTCTCGGTCTCGGGATGTGCTAGGTCTTGATTCGCTTGACGCTGCTG,0.16
GCCTAGCACGATAATTTTTTTCTAAGTAAGTGCTAGGTCTTGATTCGCTTGACGCTGCTG,1.2
GCCTAGCACATTTTTTTATCAATCATTTTGTGCTAGGTCTTGATTCGCTTGACGCTGCTG,1.51

# Block 3 — technique: protein-binding microarray; form: double-stranded DNA, one strand shown; medium: in vitro; concentration: not given; direction: higher = stronger binding
# Target: Protein C-ets-1 (ETS1, Homo sapiens, UniProt P14921, residues 1-441, Y397A, full length assumed)
# Setting: k-mer, scored over probes, only values ≥0.25
# Target sequence (chain): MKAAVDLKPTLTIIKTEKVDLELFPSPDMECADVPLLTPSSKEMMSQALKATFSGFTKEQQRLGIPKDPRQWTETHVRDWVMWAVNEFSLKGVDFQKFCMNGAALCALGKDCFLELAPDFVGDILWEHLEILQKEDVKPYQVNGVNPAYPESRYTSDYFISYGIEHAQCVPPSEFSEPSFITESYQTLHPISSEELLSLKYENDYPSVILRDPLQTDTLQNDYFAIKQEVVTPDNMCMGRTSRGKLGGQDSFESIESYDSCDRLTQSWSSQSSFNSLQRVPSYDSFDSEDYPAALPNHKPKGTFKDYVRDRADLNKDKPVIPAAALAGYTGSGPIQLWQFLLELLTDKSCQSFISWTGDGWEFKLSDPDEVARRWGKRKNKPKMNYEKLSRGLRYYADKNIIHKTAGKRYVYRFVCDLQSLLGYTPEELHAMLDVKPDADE
Strand,E-score
AATTACAA,0.271
CTGACAAC,0.254
GCGCAAAA,0.302

# Other studies, line by line — technique: competition protein-binding microarray; form: double-stranded DNA, one strand shown; medium: in vitro; concentration: 2 µM; together with: Pho4 competitor, 0.05 µM; direction: higher = stronger binding
# Target: Centromere-binding protein 1, full length, His-tagged (CBF1, Saccharomyces cerevisiae, UniProt P17106, residues 1-351)
# UniProt P17106, sequence (whole entry, looked up): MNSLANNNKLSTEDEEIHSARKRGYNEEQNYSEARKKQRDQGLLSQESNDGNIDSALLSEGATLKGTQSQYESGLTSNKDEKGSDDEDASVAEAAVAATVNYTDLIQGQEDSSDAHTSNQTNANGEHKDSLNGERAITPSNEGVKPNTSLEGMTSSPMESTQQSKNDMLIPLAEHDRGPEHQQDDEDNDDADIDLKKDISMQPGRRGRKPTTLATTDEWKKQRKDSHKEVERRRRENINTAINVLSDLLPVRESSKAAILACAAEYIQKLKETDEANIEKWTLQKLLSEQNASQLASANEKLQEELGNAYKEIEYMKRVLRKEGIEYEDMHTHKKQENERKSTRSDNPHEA
# Setting: whole 60-bp probe, lowest competitor level
Strand,fluorescence intensity [a.u.]
AAAGCGGTAATTTGTCACTCTACTTCACATATCTATGTCTTGATTCGCTTGACGCTGCTG,77.9
TGTTTGGCTGGTGTGTACGTGGTGAAAACCAAGAATGTCTTGATTCGCTTGACGCTGCTG,65.8
AAATTACTAAGTTTTCACGTGAACTACCCCGTATGAGTCTTGATTCGCTTGACGCTGCTG,875
